Experimental data collected from several papers.
Every numbered part comes from another study and shows a few of its results, in no order.

Series 1
Target: Protein max, full length (MAX, Homo sapiens, UniProt P61244-2, residues 1-151)
Method: protein-binding microarray
Molecule type: double-stranded DNA, one strand shown
Matrix: in vitro
Concentration: not given
Notes: k-mer, scored over probes, only values ≥0.25
Direction: higher = stronger binding
Oligonucleotide	E-score
GCCGCACC	0.267
ATTCACGC	0.326
ATGTGACC	0.374
GCGTGAGA	0.331
GCACGCGC	0.438
CGGGGAAC	0.258
CCCGCCCA	0.362
AATCACAC	0.293
TGCGTCCA	0.284
CACGTGGG	0.496
GATCATGC	0.386

Series 2
Target: Histone acetyltransferase KAT6A, both winged helices, GST fusion (KAT6A, Homo sapiens, UniProt Q92794, residues 1-181)
Method: protein binding microarray
Molecule type: double-stranded DNA, one strand shown
Matrix: in vitro
Concentration: not given
Notes: 8-mer, flanks averaged, mean of 2 arrays, mostly near background
Relative to: not given
Direction: higher = stronger binding
Target sequence (chain): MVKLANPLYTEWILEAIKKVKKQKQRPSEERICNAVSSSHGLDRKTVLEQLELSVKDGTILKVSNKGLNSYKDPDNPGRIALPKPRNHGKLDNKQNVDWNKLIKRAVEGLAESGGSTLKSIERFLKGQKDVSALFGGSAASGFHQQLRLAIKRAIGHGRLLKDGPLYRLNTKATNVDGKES
Oligonucleotide	E-score
ACGCAGAT	0.146
CCATGCCC	-0.181
AGAAATAC	-0.142
TTACACAA	0.0396
ACGCGTGG	0.288
ATTTACAC	-0.0403
TGTCCAAA	-0.0522
CTGTCTTA	0.0498

Series 3
Target: Interferon regulatory factor 7, full length, phosphomimetic (IRF7, Homo sapiens, UniProt Q92985, residues 1-503, S101K/S471D/S472D/S475D/S476D/S477D/S483D/S484D/S487D)
Chain of UniProt Q92985 (whole entry, unmodified, looked up): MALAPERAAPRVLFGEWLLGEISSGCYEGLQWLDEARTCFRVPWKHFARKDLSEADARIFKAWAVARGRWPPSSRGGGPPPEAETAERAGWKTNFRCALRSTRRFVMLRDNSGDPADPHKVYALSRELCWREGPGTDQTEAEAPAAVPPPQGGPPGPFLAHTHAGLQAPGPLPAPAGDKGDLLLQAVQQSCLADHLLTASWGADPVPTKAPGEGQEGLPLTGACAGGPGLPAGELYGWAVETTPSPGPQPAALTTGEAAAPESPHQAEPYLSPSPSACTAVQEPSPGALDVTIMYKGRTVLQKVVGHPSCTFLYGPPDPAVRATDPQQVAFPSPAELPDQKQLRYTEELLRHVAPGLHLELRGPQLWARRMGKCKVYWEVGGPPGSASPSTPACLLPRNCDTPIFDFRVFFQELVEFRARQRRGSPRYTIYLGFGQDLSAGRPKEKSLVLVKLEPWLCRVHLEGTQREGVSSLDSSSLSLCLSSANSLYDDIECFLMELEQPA
Method: protein-binding microarray
Molecule type: double-stranded DNA, one strand shown
Matrix: in vitro
Concentration: 250 nM
Notes: 60-bp whole probe
Together with: salmon DNA 0.4 mg/ml
Relative to: random background probes
Direction: higher = stronger binding
Shared flanks, not repeated: GCCTAGCAC … GTCTTGATTCGCTTGACGCTGCTG
Oligonucleotide	log fluorescence
GATGGTTTCCTTTCCCTGACGTGCTAG	5.12 z-score
GATGGTTTCGGGTATCGGGACGTGCTA	7.98 z-score
TTAGGATTGGACTTTCGGTTAGTGCTA	0.509 z-score
TTAGATTTCGGGTCTCGATTAGTGCTA	2.54 z-score
GACGAACTGGGGTTTAGAGACGTGCTA	-0.756 z-score
GACAATTTCAGTTCCGAGACGTGCTAG	0.757 z-score
TTAGGTTTCAGGTATCGGTTAGTGCTA	3.3 z-score
TCACCTATAGGTTCAACACTGTGCTAG	0.052 z-score
TTAGGACAGGGTTTCGGTTAGTGCTAG	6.69 z-score
GACGGTCTCGGTTTCGCGACGTGCTAG	6.39 z-score
TGAGATCTCAGTTTCGATTAGTGCTAG	8.03 z-score
TTAGGGCTGGGTCTCGGTTAGTGCTAG	-0.0859 z-score

Mixed results
Molecule	target	assay	test system	setting	how to read	measurement	value
PhoQ, residues 284 288 289 292 302 303 TGYLSA	PhoP, residues 12 14 15 18 19 GHCSL (Escherichia coli, UniProt P23836)	Sort-seq, measured: YFP reporter	E. coli	PhoQ-PhoP variant library, together with: 10 µM Mg2+	relative to: high Mg2+ state, higher = stronger signaling	fold induction	19.2
